Assay results pooled from the literature.
Each line is one published result; not all experiments were run side by side. ± marks the error that the study gave.
T1: NEMO 50-113 T50E/L55R/R75V/C76S/E78R/C95A/R106E/E110V; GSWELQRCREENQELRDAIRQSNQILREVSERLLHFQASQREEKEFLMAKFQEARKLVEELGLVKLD
B1: human RAB1C; sequence looked up; chain MNPGYDCLFKLLLIGDSGVGKSCLLLRFADDPYTESYISTIGVDFKIQTIELDGKTIKLQIWDTAGQERFWTITSSYYRGAHGFLVVYDVTDQESYANVKQWLQEIDRHASENVNKLLVGNKSDLTTKKVVDNTTAKEFADSLGIPFLETSAKNATNVEQAFMTMAAEIKKQMGPGAASGGERPNLKIDSTPVKPAGGGCC
B2: spdl-1 C-terminal 362-479 (Caenorhabditis elegans, UniProt Q17695); sequence looked up; chain PVVNKDFEHPLLAAPLKTLNNGRPSFFIKPKNVEPMPQLGHSLSSIAVTPQKPAAKFTTRSSIKDDTSEWAERRMKAQAEKKLATPTPRYNYIKLSEPVPKFKPAVLQMPSTSETKEN
B3: SRS2 1107-1174 D1151A (Saccharomyces cerevisiae, UniProt P12954); N-terminal cysteine BODIPY-FL; chain CHNPDDTTVDNRPIISNAKFLADAAMKKTQKFSKKVKNEPASSQMAIFSQLSRAKKKSKLNNGEIIVID
B4: VHH nanobody 6B1 (Lama glama); chain QVQLQESGGGLVQPGGSLRLSCAASGSIFSTDAMGWYRQFPGKNRKLVARISSGDYGDYTNYADSVKGRFTISRDNAKNTVYLQMNSLKPEDTAVYYCNSVPPAPGEYGRDYWGAGTQVTVSS
B5: SMARCD3 SWIFT domain (Homo sapiens); chain MKQKRKLRLYISNTFNPAKPDAEDSDGSIASWELRVEGKLLDDPSKQKRKFSSFFKSLVIELDKDLYGPDNHLVEWHRTPTTQETDGFQVKRPGDLSVRCTLLLMLDYQPPQFLPPDPIVINHVISVDPSDQKKTACYDIDVEVEEPL
B6: UBQLN2 450-624 S624C (UniProt Q9UHD9); Alexa Fluor 488 at C624; chain RAMQALMQIQQGLQTLATEAPGLIPSFTPGVGVGVLGTAIGPVGPVTPIGPIGPIVPFTPIGPIGPIGPTGPAAPPGSTGSGGPTGPTVSSAAPSETTSPTSESGPNQQFIQQMVQALAGANAPQLPNPEVRFQQQLEQLNAMGFLNREANLQALIATGGDINAAIERLLGSQPC
B7: ATG9 1-255 (Saccharomyces cerevisiae, UniProt Q12142); sequence looked up; chain MERDEYQLPNSHGKNTFLSRIFGLQSDEVNPSLNSQEMSNFPLPDIERGSSLLHSTNDSREDVDENDLRVPESDQGTSTEEEDEVDEEQVQAYAPQISDGLDGDHQLNSVTSKENVLETEKSNLERLVEGSTDDSVPKVGQLSSEEEEDNEFINNDGFDDDTPLFQKSKIHEFSSKKSNTIEDGKRPLFFRHILQNNRPQRDTQKLFTSSNAIHHDKDKSANNGPRNINGNQKHGTKYFGSATQPRFTGSPLNNT
B8: human ERp44; sequence looked up; chain EITSLDTENIDEILNNADVALVNFYADWCRFSQMLHPIFEEASDVIKEEFPNENQVVFARVDCDQHSDIAQRYRISKYPTLKLFRNGMMMKREYRGQRSVKALADYIRQQKSDPIQEIRDLAEITTLDRSKRNIIGYFEQKDSDNYRVFERVANILHDDCAFLSAFGDVSKPERYSGDNIIYKPPGHSAPDMVYLGAMTNFDVTYNWIQDKCVPLVREITFENGEELTEEGLPFLILFHMKEDTESLEIFQNEVARQLISEKGTINFLHADCDKFRHPLLHIQKTPADCPVIAIDSFRHMYVFGDFKDVLIPGKLKQFVFDLHSGKLHREFHHGPDPTDTAPGEQAQDVASSPPESSFQKLAPSEYRYTLLRDRDEL
B9: NHEJ1 1-224 (Homo sapiens, UniProt Q9H9Q4); sequence looked up; chain MEELEQGLLMQPWAWLQLAENSLLAKVFITKQGYALLVSDLQQVWHEQVDTSVVSQRAKELNKRLTAPPAAFLCHLDNLLRPLLKDAAHPSEATFSCDCVADALILRVRSELSGLPFYWNFHCMLASPSLVSQHLIRPLMGMSLALQCQVRELATLLHMKDLEIQDYQESGATLIRDRLKTEPFEENSFLEQFMIEKLPEACSIGDGKPFVMNLQDLYMAVTTQ
B10: Cid14/Air1 69-684 D298A/D300A (Schizosaccharomyces pombe); chain 1 MVEIGSKKSRNDNDSEGIRDKGGVEISNKNDPYIQFGKADPLEPLEKPDLPEEAIKRGEPTILLGIPKREGRKTNPVHDKAVENNSDFIKFDWNSDEDEDSVSNDKSKNNESLKKSSKNEIPGFMRQRGRFFHEANEKSDSNRKRKRQAYELDSQSCPWHRQYKVEREVSRIFHQDILHFIDYITPTPEEHAVRKTLVSRINQAVLQKWPDVSLYVFGSFETKLYLPTSALALVIISPEHHYRGTKKDMFVLAHHLKKLKLASEVQVITTANVPIIKFVDPLTKVHVDISFNQPGGLKTCLVVNGFMKKYPALRPLVIIIKHFLNMRALNEVFLGGLSSYAIVCLVVSFLQLHPRLSTGSMREEDNFGVLLLEFLELYGKQFYYDAVGIAVHNGGFYFSKKKMGWLKPNQPYLLSIQDPVDFQNDVSKSSRGLLRVKATFANGFDLLTSKLYALASRIEREGVNRVKDFPSILSTILSVDEGVRQHREHMLKCYKNNPVPLEPLVEVDALASIDVDKLPLQDVGLQYVEDESDSDETDAAKDDLFKVNESIETNGHENFQKQALTSTGEQSSSNSRANPSKLFNISSDDSEDEVPIIEDTTASDEESRAKKIRKRF; chain 2 MDMTVSNQKAESDDGSDIDDAALLQKINSLPIDQSITNSVSLEKHDFQGSDDHDSSTDLSDSTLEDVEGSEWADVSRGRYFGSDPSESIVCHNCKGNGHISKDCPHVLCTTCGAIDDHISVRCPWTKKCMNCGLLGHIAARCSEPRKRGPRVCRTCHTDTHTSSTCPLIWRYYVEKEHPVRIDVSEVRKFCYNCASDEHFGDDCTLPSRSNYPESTAFCEANCPSGNDASNKEFFETRRKEFQLERREQNRNQKSSKQRPFH
B11: IL18 37-193 F57C/C74S/T81C/C104S/C112S/C163S (Homo sapiens, UniProt Q14116); chain YFGKLESKLSVIRNLNDQVLCIDQGNRPLFEDMTDSDSRDNAPRCIFIISMYKDSQPRGMAVTISVKSEKISTLSSENKIISFKEMNPPDNIKDTKSDIIFFQRSVPGHDNKMQFESSSYEGYFLASEKERDLFKLILKKEDELGDRSIMFTVQNED
Sequence of UniProt P12314 (whole entry, looked up): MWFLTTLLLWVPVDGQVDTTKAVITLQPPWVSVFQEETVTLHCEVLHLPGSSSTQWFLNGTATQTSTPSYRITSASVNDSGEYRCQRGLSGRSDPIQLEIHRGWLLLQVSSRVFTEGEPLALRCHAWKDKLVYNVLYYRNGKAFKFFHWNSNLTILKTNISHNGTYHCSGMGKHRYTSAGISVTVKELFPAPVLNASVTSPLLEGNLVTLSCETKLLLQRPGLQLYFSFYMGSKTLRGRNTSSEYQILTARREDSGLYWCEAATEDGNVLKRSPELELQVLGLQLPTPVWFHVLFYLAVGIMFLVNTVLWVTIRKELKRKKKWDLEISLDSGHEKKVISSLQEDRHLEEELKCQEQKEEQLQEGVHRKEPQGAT
Sequence of UniProt Q20849 (whole entry, looked up): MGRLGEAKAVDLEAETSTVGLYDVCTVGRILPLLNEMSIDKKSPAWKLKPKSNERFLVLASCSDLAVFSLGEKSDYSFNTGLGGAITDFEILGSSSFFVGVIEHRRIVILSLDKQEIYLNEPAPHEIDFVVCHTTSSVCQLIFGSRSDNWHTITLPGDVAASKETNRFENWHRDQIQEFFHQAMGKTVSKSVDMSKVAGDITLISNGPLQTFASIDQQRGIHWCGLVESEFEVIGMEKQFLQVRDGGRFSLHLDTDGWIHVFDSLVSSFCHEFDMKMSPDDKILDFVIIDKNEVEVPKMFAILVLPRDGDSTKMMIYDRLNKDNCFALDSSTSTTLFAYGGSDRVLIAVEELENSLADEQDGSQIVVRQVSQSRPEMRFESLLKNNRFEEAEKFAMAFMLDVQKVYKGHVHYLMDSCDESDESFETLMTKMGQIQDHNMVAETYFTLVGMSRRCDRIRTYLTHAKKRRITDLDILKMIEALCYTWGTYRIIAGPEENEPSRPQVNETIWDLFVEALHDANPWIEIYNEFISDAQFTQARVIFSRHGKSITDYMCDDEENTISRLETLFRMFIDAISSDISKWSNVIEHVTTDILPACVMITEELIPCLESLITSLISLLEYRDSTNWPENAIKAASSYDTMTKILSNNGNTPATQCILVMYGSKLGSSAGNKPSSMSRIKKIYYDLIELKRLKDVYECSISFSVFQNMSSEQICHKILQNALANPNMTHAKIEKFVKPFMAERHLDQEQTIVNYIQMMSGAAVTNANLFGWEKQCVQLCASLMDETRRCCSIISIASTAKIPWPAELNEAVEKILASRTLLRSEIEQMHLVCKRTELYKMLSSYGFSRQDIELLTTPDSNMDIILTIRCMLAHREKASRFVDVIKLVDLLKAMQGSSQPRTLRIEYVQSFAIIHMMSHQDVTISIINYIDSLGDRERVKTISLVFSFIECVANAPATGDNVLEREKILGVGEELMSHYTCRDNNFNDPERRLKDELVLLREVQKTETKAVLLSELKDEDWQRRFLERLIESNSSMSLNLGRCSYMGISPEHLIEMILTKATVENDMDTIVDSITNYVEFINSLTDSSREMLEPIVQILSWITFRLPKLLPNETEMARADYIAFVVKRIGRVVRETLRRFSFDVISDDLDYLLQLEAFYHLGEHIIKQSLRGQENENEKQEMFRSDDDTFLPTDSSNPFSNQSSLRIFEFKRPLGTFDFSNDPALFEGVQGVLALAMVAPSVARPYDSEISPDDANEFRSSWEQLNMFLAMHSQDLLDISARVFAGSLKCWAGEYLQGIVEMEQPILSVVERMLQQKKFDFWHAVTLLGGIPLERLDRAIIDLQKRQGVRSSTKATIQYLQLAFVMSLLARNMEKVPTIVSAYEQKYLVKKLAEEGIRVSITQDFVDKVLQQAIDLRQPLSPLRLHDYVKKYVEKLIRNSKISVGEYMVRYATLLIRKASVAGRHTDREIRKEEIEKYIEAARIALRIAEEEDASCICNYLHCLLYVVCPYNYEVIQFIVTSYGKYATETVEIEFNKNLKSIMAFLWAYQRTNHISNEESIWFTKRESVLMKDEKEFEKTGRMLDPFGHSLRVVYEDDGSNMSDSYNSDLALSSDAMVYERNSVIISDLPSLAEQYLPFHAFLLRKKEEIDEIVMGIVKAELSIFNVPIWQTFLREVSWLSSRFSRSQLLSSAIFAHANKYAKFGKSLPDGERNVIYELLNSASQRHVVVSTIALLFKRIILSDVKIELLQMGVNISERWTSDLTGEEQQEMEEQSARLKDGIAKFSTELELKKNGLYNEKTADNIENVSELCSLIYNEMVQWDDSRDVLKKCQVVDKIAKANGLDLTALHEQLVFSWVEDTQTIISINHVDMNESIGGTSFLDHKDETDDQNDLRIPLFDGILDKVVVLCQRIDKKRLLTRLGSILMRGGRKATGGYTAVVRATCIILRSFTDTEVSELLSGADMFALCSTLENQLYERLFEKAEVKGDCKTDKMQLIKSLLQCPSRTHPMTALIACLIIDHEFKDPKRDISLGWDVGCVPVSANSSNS
Sequence of UniProt Q5BJF2 (whole entry, looked up): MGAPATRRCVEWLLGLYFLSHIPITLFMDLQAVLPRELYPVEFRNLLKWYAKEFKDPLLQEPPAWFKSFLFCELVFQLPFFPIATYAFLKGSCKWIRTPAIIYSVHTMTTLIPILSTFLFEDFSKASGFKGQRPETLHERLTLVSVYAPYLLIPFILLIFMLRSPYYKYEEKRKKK
Sequence of UniProt P04191 (whole entry, looked up): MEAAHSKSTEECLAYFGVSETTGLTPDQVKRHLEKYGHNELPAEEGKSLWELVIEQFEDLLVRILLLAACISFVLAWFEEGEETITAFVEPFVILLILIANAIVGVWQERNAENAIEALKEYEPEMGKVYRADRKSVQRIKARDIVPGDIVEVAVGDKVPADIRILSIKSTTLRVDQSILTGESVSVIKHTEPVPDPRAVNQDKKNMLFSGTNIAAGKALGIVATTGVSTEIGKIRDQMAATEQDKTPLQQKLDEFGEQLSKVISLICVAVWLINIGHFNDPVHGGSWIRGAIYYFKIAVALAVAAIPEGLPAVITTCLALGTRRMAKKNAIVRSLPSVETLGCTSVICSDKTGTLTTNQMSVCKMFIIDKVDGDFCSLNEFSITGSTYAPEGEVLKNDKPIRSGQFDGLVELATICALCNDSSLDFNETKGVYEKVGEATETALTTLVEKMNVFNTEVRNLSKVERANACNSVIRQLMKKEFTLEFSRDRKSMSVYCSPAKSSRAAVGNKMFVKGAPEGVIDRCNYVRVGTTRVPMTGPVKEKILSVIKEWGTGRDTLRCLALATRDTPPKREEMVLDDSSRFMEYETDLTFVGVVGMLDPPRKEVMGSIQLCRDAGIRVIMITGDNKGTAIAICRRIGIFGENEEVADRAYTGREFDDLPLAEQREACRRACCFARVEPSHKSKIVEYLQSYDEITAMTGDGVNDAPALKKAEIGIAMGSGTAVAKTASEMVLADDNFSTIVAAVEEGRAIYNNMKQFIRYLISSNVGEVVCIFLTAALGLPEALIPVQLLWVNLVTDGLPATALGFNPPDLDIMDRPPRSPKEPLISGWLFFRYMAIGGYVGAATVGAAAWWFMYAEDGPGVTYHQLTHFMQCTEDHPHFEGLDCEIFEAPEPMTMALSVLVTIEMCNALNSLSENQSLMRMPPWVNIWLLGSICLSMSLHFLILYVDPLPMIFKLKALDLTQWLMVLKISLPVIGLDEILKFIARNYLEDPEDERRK
Sequence of UniProt Q96B97 (whole entry, looked up): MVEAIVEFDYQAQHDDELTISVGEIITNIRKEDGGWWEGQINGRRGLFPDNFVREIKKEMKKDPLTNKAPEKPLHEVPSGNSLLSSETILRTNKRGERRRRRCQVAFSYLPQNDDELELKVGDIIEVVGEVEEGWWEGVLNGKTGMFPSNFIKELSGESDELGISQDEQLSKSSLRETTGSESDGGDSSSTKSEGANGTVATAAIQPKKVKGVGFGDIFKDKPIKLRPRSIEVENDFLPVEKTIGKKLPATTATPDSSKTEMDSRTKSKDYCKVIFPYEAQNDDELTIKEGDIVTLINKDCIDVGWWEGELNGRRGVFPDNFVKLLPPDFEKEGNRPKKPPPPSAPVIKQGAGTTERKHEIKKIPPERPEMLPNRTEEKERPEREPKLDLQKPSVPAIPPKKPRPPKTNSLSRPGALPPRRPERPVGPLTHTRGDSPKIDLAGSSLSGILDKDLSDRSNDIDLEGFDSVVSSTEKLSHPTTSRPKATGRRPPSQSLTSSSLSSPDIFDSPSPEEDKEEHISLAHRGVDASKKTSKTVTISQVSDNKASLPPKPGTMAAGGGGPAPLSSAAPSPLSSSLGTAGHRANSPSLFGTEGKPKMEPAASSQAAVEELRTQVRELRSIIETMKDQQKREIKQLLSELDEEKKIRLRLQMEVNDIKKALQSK
Sequence of UniProt Q23985 (whole entry, looked up): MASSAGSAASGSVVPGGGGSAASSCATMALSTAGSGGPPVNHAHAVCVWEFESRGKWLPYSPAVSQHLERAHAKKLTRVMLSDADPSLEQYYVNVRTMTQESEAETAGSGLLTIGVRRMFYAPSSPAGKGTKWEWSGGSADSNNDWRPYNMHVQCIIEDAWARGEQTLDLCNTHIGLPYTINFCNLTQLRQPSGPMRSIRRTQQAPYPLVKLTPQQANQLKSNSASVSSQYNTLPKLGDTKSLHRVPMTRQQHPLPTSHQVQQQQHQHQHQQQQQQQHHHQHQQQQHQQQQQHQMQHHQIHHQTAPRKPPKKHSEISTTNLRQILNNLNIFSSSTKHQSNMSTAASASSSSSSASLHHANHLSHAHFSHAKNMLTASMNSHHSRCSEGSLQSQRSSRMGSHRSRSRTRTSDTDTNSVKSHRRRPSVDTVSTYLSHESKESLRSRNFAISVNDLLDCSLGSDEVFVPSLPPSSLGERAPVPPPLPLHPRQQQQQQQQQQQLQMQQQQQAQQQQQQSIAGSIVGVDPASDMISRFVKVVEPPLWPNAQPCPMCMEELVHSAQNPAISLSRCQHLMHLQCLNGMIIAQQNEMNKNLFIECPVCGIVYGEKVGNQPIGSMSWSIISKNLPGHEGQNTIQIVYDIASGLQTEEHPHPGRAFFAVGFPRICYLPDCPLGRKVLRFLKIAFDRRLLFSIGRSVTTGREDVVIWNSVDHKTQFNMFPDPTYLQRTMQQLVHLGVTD

Molecule | target or system | test | test system | conditions | how to read | measurement | result
B1 (human RAB1C) | CYB5R4 knockout human cells | PP6 interaction, 3xFLAG-PP6C IP-MS | – | concentration not given | relative to: CYB5R4 KO over parental | log2 fold change | -0.1
B2 (spdl-1 C-terminal 362-479) | rod-1 2-418 (Caenorhabditis elegans, UniProt Q20849) | SPR | – | – | – | Kd | 13.4 ± 5 µM
B3 (SRS2 1107-1174 D1151A) | POL30 1-258 K127G (Saccharomyces cerevisiae, UniProt P15873) | fluorescence polarisation | – | apparent | – | Kd | 1.67 µM
B4 (VHH nanobody 6B1) | FXN 90-210 H177C (Homo sapiens, UniProt Q16595) | BLI | VHH | – | – | Kd | 0.006 µM
HTN1 fragment alanine substitutions at 9-11 | TMEM97 (Homo sapiens, UniProt Q5BJF2) | SPR | – | – | – | Kd | 4.7 µM
Notch ankyrin domain D117A/R107A (Drosophila) | dx (Drosophila melanogaster, UniProt Q23985) | AUC | – | – | – | Kd | 5.71 µM
KLLMIIHDRREFAKFEKEKMNAKADTQENPIYKSPINNFKNPNYGRKAGL (ITGB1 752-801 W775A (Homo sapiens, UniProt P05556-5); sequence looked up) | Tln2 312-408 (Mus musculus, UniProt Q71LX4) | NMR titration | – | – | – | Kd | 258 µM
EGLN1 fragment | HIF1A CODD peptide 556-574, C-terminal amide (Homo sapiens) | BLI | – | – | – | Kd | 23.6 ± 3 µM
NLFDDNIDIFADLT (WASHC2A 1261-1274 (Homo sapiens)) | SNX27 fragment (Homo sapiens) | ITC | peptide | – | – | Kd | 38.4 ± 1.34 µM
ANK1 fragment (Rattus norvegicus) | ATP2A1 (Oryctolagus cuniculus, UniProt P04191) | far-Western | – | – | – | Kd | 0.444 µM
B5 (SMARCD3 SWIFT domain) | POU2F3 (UniProt Q9UKI9) | MST | – | – | – | Kd | > 13 µM
ARTKQTARKS (histone H3 1-10; K4me3) | ING1 163-234 E202A (Arabidopsis thaliana, UniProt Q9LIQ6) | ITC | peptide | – | – | Kd | 3.45 ± 0.09 µM
GCVRLHESCLGQQVPCCDPAATCYCSGRGDNDLVCYCR (designed binder) | ITGA2B/ITGB3 K562 cells | flow cytometry | designed binder, U87MG | – | – | Kd | > 0.1 µM
trastuzumab IgG1 (Homo sapiens) | FCGR1A (Homo sapiens, UniProt P12314) | SPR | – | – | – | Kd | 0.00089 µM
ASCC3 C-degron | APPBP2/ELOB/ELOC C54A/H89A (Homo sapiens) | ITC | – | – | – | Kd | 2 ± 0.5 µM
B6 (UBQLN2 450-624 S624C) | ubiquitin (UniProt P0CG48) | fluorescence polarisation | – | – | – | Kd | 3.36 µM
B7 (ATG9 1-255) | ATG23 A34E (UniProt Q06671) | BLI | – | – | – | Kd | 11 µM
B8 (human ERp44) | PP6C (human) | co-immunoprecipitation, IP-MS | CYB5R4 knockout cells | concentration not given | relative to: CYB5R4 knockout over parental | log2 fold change | -2.31
TERLVLRLNRKKKKVSWKDGTVDNE (INH3 27-51 (Arabidopsis thaliana, UniProt Q8S8F7)) | PUX3 (Arabidopsis thaliana, UniProt Q9SUG6) | ITC | peptide | – | – | Kd | 37.7 ± 12.3 µM
B9 (NHEJ1 1-224) | XRCC4 (Homo sapiens, UniProt Q13426) | BLI | – | – | – | Kd | 0.17 µM
B10 (Cid14/Air1 69-684 D298A/D300A) | mtr4 (Schizosaccharomyces pombe, UniProt O14232) | SPR | – | – | – | Kd | 0.174 ± 0.019 µM
SQAPARPPKPRPRRTAY (Cbl-b residues 899-915) | SH3KBP1 1-58 (Homo sapiens, UniProt Q96B97) | ITC | peptide | 25 °C | – | Kd | 9.9 ± 3.8 µM
ISTEEVQFLIPPESQAEKPEAGDKPAAAEQ (CCDC32 150-179 (Mus musculus, UniProt Q8BS39)) | AP-2 core (Mus musculus) | FP | – | – | – | Kd | 0.61 µM
B11 | IL18BP (Homo sapiens, UniProt O95998) | SPR | – | – | – | Kd | 7e-06 µM
PARRSEELVAEAHNLCTLLENAIQDTVREQDQSFTALDWSWLQTE (IKBKB 701-745 K703R/K704R (UniProt O14920); N-terminal FITC; sequence looked up) | T1, NEMO 50-113 T50E/L55R/R75V/C76S/E78R/C95A/R106E/E110V | fluorescence polarisation | peptide | – | – | Kd | 0.348 µM

For quick reference, copied from above:
Molecule | target or system | test | test system | conditions | how to read | measurement | result
B3 (SRS2 1107-1174 D1151A) | POL30 1-258 K127G (Saccharomyces cerevisiae, UniProt P15873) | fluorescence polarisation | – | apparent | – | Kd | 1.67 µM
B4 (VHH nanobody 6B1) | FXN 90-210 H177C (Homo sapiens, UniProt Q16595) | BLI | VHH | – | – | Kd | 0.006 µM
HTN1 fragment alanine substitutions at 9-11 | TMEM97 (Homo sapiens, UniProt Q5BJF2) | SPR | – | – | – | Kd | 4.7 µM
Notch ankyrin domain D117A/R107A (Drosophila) | dx (Drosophila melanogaster, UniProt Q23985) | AUC | – | – | – | Kd | 5.71 µM
